Published values of several laboratories.
Parts stem from different laboratories: compare values within a part only.

Block 1 — method: RNA Bind-n-Seq; molecule type: RNA; matrix: in vitro; tested at: 1 µM; setting: whole 134-nt RNA, ends assumed; with: 150 mM KCl; baseline: input library; direction: higher = stronger binding
Target: Ras GTPase-activating protein-binding protein 1, RRM domain (G3BP1, Homo sapiens, UniProt Q13283)
Chain of UniProt Q13283 (whole entry, looked up): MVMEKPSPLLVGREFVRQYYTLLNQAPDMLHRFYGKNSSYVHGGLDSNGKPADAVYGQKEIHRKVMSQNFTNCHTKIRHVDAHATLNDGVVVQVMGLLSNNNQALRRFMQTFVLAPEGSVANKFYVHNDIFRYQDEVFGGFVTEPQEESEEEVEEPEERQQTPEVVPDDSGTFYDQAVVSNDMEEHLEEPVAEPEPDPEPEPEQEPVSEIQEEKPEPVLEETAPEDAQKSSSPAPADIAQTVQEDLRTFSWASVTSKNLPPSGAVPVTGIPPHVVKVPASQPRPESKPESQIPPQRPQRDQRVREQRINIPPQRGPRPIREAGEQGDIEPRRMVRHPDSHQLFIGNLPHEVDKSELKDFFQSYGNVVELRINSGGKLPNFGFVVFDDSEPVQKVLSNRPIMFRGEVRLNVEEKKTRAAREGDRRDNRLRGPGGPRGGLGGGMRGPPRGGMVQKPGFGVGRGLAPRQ
All sequences stand within: GGGAGUUCUACAGUCCGACGAUC … UGGAAUUCUCGGGUGUCAAGG
Strand | log2 enrichment
AGUCCUGUGCUACACAUCGUAUGUACCGAAUCGGGGUGGGGAAAAAAAGGGGUGGGGAAAGUAUUAUGUUACGCCGUUCGGAUCUGCACU | 0.732
UCCUGUGCUACACAUCGUAUGUACCGAAUCGGGGCCCCCCGGCCCCCCGGGGCCCCCCGGAAAGUAUUAUGUUACGCCGUUCGGAUCUGC | -0.432
AAGUCCUGUGCUACACAUCGUAUGUACCGAAUCGGGUUUUGGGGUUUUGGGUUUUGGAAAGUAUUAUGUUACGCCGUUCGGAUCUGCACU | -0.148
AGUCCUGUGCUACACAUCGUAUGUACCGAAUCGGGUUUUUGGGUUUUUGGGUUUGGGAAAGUAUUAUGUUACGCCGUUCGGAUCUGCACU | 0.285
UGGCCCUGGUGGCAUGCGGGGAGGAAGAGGUGGCCUCAUGGAUCGUGGUGGUCCCGGUGGAAUGUUCAGAGGUGGCAGUGGUGGAGACAG | 1.45
GUCCUGUGCUACACAUCGUAUGUACCGAAUCGGGUUUUUGGUUUUUGGGUUUUUGGGGAAAGUAUUAUGUUACGCCGUUCGGAUCUGCAC | -0.188
UGGGAGGUGGAUUUUGUUUAUUUUUUUAGCUCACUUCCAGGGGUGGGAAUUUUUUUUUAAUAUGUGUCAUGAAUAAAGUUGUUUUUGAAA | 1.7
CAAGUCCUGUGCUACACAUCGUAUGUACCGAAUCGGGGUUGGGUUGGGGUUGGGGAAAGUAUUAUGUUACGCCGUUCGGAUCUGCACUUC | 1.07
AGUCCUGUGCUACACAUCGUAUGUACCGAAUCGGGUUUGGGAAAGGGAAAAAAAGGGAAAGUAUUAUGUUACGCCGUUCGGAUCUGCACU | 0.387

Block 2 — method: RNA Bind-n-Seq; molecule type: RNA; matrix: in vitro; tested at: 20 nM; setting: 6-mer, flanks averaged, single round; with: 150 mM LiCl; baseline: input library; direction: higher = stronger binding
Target: TAR DNA-binding protein 43, full length, His tag (TARDBP, Homo sapiens, UniProt Q13148, residues 1-414)
Strand | 6-mer enrichment (R)
GUGCCG | 1.07
AGGUCA | 0.849
AUUGCA | 0.889
UAGUCU | 0.877
UGGGUA | 1.18
CCAAUU | 0.96
UGCUAU | 0.978
UAUUGU | 1.13
UUUAAA | 1.03
AUCCUG | 0.84
CGGGUC | 0.935
AAGCGA | 0.844
GUCUGC | 0.954
GGAAAG | 1.05
GUCCGU | 0.948
AUCGGU | 0.904
AUAACA | 1.03
UACUAU | 0.904
CCACAA | 0.882
CGAUAU | 0.85
GGAUUC | 0.875
CUAGUG | 1.03

Block 3 — method: RNA Bind-n-Seq; molecule type: RNA; matrix: in vitro; tested at: 365 nM; baseline: no-protein control; direction: higher = stronger binding
Target: RNA binding protein fox-1 homolog 2, RRM domain, GST-SBP tag (RBFOX2, Homo sapiens, UniProt O43251-10, residues 100-194)
Setting: natural RNA segment, single round, ends assumed
All sequences stand within: GGGAGUUCUACAGUCCGACGAUC … UGGAAUUCUCGGGUGCCAA
Construct (chain): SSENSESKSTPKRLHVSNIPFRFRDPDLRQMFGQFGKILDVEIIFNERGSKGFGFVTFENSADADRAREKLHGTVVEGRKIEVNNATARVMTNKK
Strand | RBNS enrichment (R)
ACACAGACACCUCAGUGUUGGACCUGUGAUGAAAGUUUCUGAGAAAUACUUUUGUUCCAAACCAUUAAGUAAUGUACGCAUGUUAAACACGUAGAGUGCCUGGCACUGGC | 8.92
UGUUGCCCAGCUCAGGGUGUCUGCUUGGUGGCUCUAACCCCUGCCCAUCCAGUUGUUUCUGGGCUGUGCGAGAGAUCAUACAUUGAUCUGUGUGUGAUGAGUUGAGGGCU | 0.492
CUGUCUCCAUGUUAAAAUGCCAAAAAUGAUGUAGUUGUUGUUGCUUUUUUCCCUAUUUUCCACCCCAGUCGCUCCUUACCGUGACUCCUGCCCUUGGAGGGCAUGUAGCA | 1
CAUUCCCACGGCAUCAUCUACCGGGACCUCAAGCCUGAGAACAUCAUGCUCAGCAGCCAGGGCCACAUCAAACUGACAGACUUUGGACUUUGCAAGGAGUCCAUUCAUGA | 0.248
UUCAAUGAAUUUCUGCCUAUGAGGCAUCUGGCCCCUGGUAGCCAGCUCUCCAGAAUUACUUGUAGGUAAUUCCUCUCUUCAUGUUCUAAUAAACUUCUACAUUAUCACCA | 0.391
UUUCAACCUUGACUCGUAAAUACUUCCCUCUGCAUGGGGGUGAUCGUAGAGAGAAUCAAGGCUACCAUGUGUUUUCUCAUGAGUCAGAAGAUGGCUCAGGAAGCCACUGU | 0.39
UUGUACUUUUUAUUCAAUCUGUAUAGACUAUAAAACUAUUUUUAUUAAAUAAAUAUUUUACAGUAAAUUUUCCCUUUUCACUCAGAAUUAUUUUGAGUUCAUCUUCAAAG | 1.15
UGCGGCUGGGCUGCUUUAGGAGACCAAGUGGCAAGAAAGCUCACAUUUUUUGAGUUCAAAUGCUACUGUCCAAGCGAGAAGUCCCUCAUCCUGAAGUAGACUAAAGCCCG | 0.228

Block 4 — method: competition protein-binding microarray; molecule type: double-stranded DNA, one strand shown; matrix: in vitro; tested at: 2 µM; with: Pho4 competitor, 0.05 µM; direction: higher = stronger binding; all sequences stand within: … GTCTTGATTCGCTTGACGCTGCTG
Target: Centromere-binding protein 1, full length, His-tagged (CBF1, Saccharomyces cerevisiae, UniProt P17106, residues 1-351)
Chain of UniProt P17106 (whole entry, looked up): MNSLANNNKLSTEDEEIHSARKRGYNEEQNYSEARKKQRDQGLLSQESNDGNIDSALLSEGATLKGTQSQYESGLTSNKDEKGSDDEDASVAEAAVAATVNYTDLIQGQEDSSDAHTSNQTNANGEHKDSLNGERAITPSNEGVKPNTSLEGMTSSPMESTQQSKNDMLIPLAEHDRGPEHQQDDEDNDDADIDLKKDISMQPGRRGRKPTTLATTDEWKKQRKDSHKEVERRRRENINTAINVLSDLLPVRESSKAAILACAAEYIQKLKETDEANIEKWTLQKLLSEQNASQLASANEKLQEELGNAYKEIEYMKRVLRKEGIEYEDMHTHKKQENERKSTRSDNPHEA
Setting: whole 60-bp probe, lowest competitor level
Strand | fluorescence intensity [a.u.]
GTTTCTCTACGATTACACGGGTGAAGCCATTCTCTG | 59.9
CTTCTGTAAATTTGGAACGTGGGTGGACGCGCCCCG | 66.7
AATCTCGGTGAATTAACCGTGATGGATCACTTAGGT | 80.4
AACAGACCTGACGGCCACGATGCAGCAGACGCTTAC | 50.6
TAACGAAAATGTTAGCACGTCGCGTTTATGGCCCCA | 89.5
AAAGCGGTAATTTGTCACCGGACTTCACATATCTAT | 104
CGGGGTTAAGTTTTTCACGTGAGCTGCTTGCAGCAG | 1010
TTTTCAATCGTTGGCTACGTGCGGACACTTGTTTTG | 236
CTAGTATTGAATGTTTTCGTGATGGTTTATTGAGAC | 96.5
AAAGCGGTAATTTGCACGGTGGGTGCAGATATCTAT | 79.5
GGGTGCCGGTACTTCCACGGGCCTCCAGTCCAGGAC | 50.3
AAATTACTAAGTTGGTTGGTGGGTGACGCCGTATGA | 63.9
TCAGCTTAGCACAGACACGTTGTGGTCTGTAGGTCA | 75.1
CATACCCAACCTTGCTGTGTGGGTGAAGATATTTGT | 64.5
AAATTACTAAGTTGTCACAAAACTTACCCCGTATGA | 89.8
TCCAAAACACAGGGGCACGTGCATCCTTGTGGCACT | 1950
CTAACGAAGGTTTGCCGTGTGGGTGACAAGCCAAGT | 66.3
CAATCTGATGATGTGGTCGTGGGTAGGCTTAGCCAA | 66.2
CTTTCCCGATCTTGTTGTGTGGGTGTAGCACATTTG | 91

Repeated from above (block 2):
Strand | 6-mer enrichment (R)
AUCGGU | 0.904
UAGUCU | 0.877
CCAAUU | 0.96
UUUAAA | 1.03
